Published values gathered from unrelated publications.
Lines come from different studies, so protocols differ. Numbers after ± are the reported error. Values after ≈ are worked out from the molar mass of the structure shown.

Structure (SMILES) | test | system | setting | how to read | endpoint | value
Cc1nccc2c3ccccc3n(Cc3cccnc3)c12 | OECD guideline | Kunming mice, both sexes | oral, single dose, 14 days | – | LD50 | 1430 mg/kg
CC[C@H](C)[C@@H]1NC(=O)[C@H](CCCCN)NC(=O)[C@H](CCCNC(=N)N)NC(=O)[C@H](Cc2ccc(O)cc2)NC(=O)[C@H](CC(C)C)NC(=O)[C@@H]2CCCN2C(=O)[C@H](C)NC(=O)CNC(=O)CNC(=O)[C@H](CO)NC(=O)CNC(=O)CNC(=O)[C@H](CO)NC(=O)[C@H](CCC(=O)O)NC(=O)[C@H](CC(C)C)NC(=O)[C@H](CC(C)C)NC(=O)[C@H](CCCCN)NC(=O)[C@H](CCCCN)NC(=O)[C@H]([C@@H](C)CC)NC(=O)[C@H]([C@@H](C)CC)NC(=O)[C@H](CCCCN)NC(=O)[C@H](CCCNC(=N)N)NC(=O)[C@H](Cc2ccc(O)cc2)NC(=O)[C@H](CC(C)C)NC(=O)[C@@H]2CCCN2C(=O)CNC(=O)CNC(=O)[C@@H](NC(=O)CN)CSSC[C@@H](C(N)=O)NC(=O)[C@H](CC(C)C)NC(=O)[C@H](CCCCN)NC(=O)[C@H](CCCCN)NC(=O)[C@H]([C@@H](C)CC)NC1=O | hemolysis | uninfected human erythrocytes | 1 h | – | HC10 | 22.8 ± 1.9 µM
CC(C)[C@H](NC(=O)CNC(=O)[C@H](CCC(N)=O)NC(=O)[C@H](C)N)C(=O)O | – | human | intravenous infusion, 15 mg/kg/h, 2 h, relatedness Definitely | relative to: subjects | drug-related adverse events | 0%
CN(C)CCN(Cc1ccccc1)C(=O)c1cc(-c2ccc(F)cc2)n2nc(C(C)(C)C)cc2n1 | – | C57BL/6 x SJL wild-type mouse | subcutaneous, 35 mg/kg | – | blood concentration | ~3000 nM
CSCC[C@H](NC(=O)CNC(=O)[C@H](CC(=O)O)NC(=O)[C@@H](NC(=O)[C@@H](NC(=O)[C@@H](NC(=O)CNC(=O)[C@H](CCC(N)=O)NC(=O)[C@H](CCSC)NC(=O)[C@H](CC(=O)O)NC(=O)[C@H](C)NC(=O)[C@H](C)NC(=O)[C@@H](NC(=O)[C@H](CO)NC(=O)[C@@H](N)CC(C)C)[C@@H](C)O)C(C)C)C(C)C)[C@@H](C)O)C(=O)N[C@@H](C)C(=O)N[C@@H](CO)C(=O)NCC(=O)N[C@@H](CC(C)C)C(=O)N[C@@H](CC(=O)O)C(=O)N[C@@H](CCCCN)C(=O)N[C@@H](CC(=O)O)C(=O)N[C@@H](Cc1ccc(O)cc1)C(=O)N[C@@H](CC(C)C)C(=O)N[C@@H](CCCCN)C(=O)N1CCC[C@H]1C(=O)N[C@@H](CC(=O)O)C(=O)N[C@@H](CC(=O)O)C(=O)O | – | human, serum | intravenous, 4.16 mg/kg, patients, infusion | – | Tmax | 0.08 h
CCCCCCCC(=O)SCC/C=C/[C@@H]1CC(=O)NCc2nc(cs2)C2=N[C@@](C)(CS2)C(=O)N[C@@H](C(C)C)C(=O)N1 | – | mouse NIH Swiss, female | intravenous, 5 mg/kg | – | alpha rate constant | 0.248 min⁻¹
NC(=O)[C@@H](O)C[C@H]1CCc2sc3ncnc(O[C@H]4CC[C@H](N5CCOCC5)CC4)c3c21 | – | NOD/SCID mice, OCI-Ly10 xenograft | intraperitoneal, 100 mg/kg/day twice daily, 14 days | – | body weight | not toxic
N=C(N)NCc1ccc(C(=O)NCCCC[C@H](NC(=O)N[C@@H](CCC(=O)O)C(=O)O)C(=O)O)cc1[131I] | – | SCID mouse, PC-3 xenografts, spleen | 21 h | – | tissue uptake | 0.33 ± 0.07 %ID/g
CCCC[C@H]1C(=O)N(C)[C@@H](CCCC)C(=O)N[C@@H](CCCNC(=O)CN2CCN(CC(=O)O)CCN(CC(=O)O)CCN(CC(=O)O)CC2)C(=O)N[C@H](C(=O)NCC(N)=O)CSCC(=O)N[C@@H](Cc2ccc(O)cc2)C(=O)N(C)[C@@H](C)C(=O)N[C@@H](CC(N)=O)C(=O)N2CCC[C@H]2C(=O)N[C@@H](Cc2c[nH]cn2)C(=O)N[C@@H](CC(C)C)C(=O)N(C)CC(=O)N[C@@H](Cc2c[nH]c3ccccc23)C(=O)N[C@@H](CO)C(=O)N[C@@H](Cc2c[nH]c3ccccc23)C(=O)N1C [gallium-68 labelled] | – | fetal bovine serum | 2 h, 37 °C | – | radiochemical purity | > 90%
CC(=O)NCC(=O)N[C@@H](C)C(=O)N[C@@H](CCCCNP(=O)(O)O)C(=O)NCC(=O)NCC(N)=O | non-enzymatic hydrolysis | – | 100 µM, pH 7.8, no enzyme | – | first-order rate constant | 5.6e-05 s⁻¹
CC(C)[C@@H]1NC(=O)[C@H](Cc2ccccc2)NC(=O)[C@H](Cc2ccc(O)cc2)NC(=O)CCSSC[C@@H](C(=O)N2CCC[C@H]2C(=O)N[C@H](CCCNC(=N)N)C(=O)NCC(N)=O)NC(=O)[C@H](CCC(N)=O)NC1=O | – | Wistar rat, blood | intravenous, 10 µg/kg single dose, 72 h | – | fibrinogen | 210 ± 41.8 mg/dL
Cc1ccc(/C=C/C(=O)O)cc1-c1cc2c(cc1C)C(C)(C)CCC2(C)C | – | Sprague-Dawley rat, male | oral, 100 mg/kg, 24 h, sesame oil vehicle | – | blood triglycerides | 109 ± 16.4 mg/dL
CN(C)C(CNC(=O)Nc1cc(C(F)(F)F)ccc1N1CCOCC1)c1ccncc1 (stereo not shown) | – | mouse, serum | intraperitoneal, 240 mg/kg single dose | – | serum albumin | 2.7 g/dL
CN[C@@H]1[C@H](O)[C@H](NC)[C@H]2O[C@]3(O)[C@H](O[C@@H]2[C@H]1O)O[C@H](C)C[C@@]3(O)CNCCc1ccc(F)cc1 | – | female BALB/c mice | subcutaneous, 3 days, twice daily | – | maximum tolerated dose | 50 mg/kg
CSCC[C@@H]1NC(=O)[C@@H]2CSSC[C@H](NC(=O)[C@H](CO)NC(=O)[C@H](C)N)C(=O)N[C@@H](CCCNC(=N)N)C(=O)N[C@@H]([C@@H](C)O)C(=O)N3CCC[C@H]3C(=O)N[C@@H](CCCCN)C(=O)N[C@@H](CC(=O)O)C(=O)N[C@H]3CSSC[C@H](NC(=O)[C@H](CCCCN)NC(=O)[C@H](CCCNC(=N)N)NC(=O)[C@H](CC(N)=O)NC1=O)C(=O)N[C@@H](CCCCN)C(=O)N[C@H]1CSSC[C@H](NC(=O)[C@@H]4CCCN4C(=O)[C@H](CC(=O)O)NC(=O)[C@H](C)NC3=O)C(=O)N[C@@H](C)C(=O)N[C@@H](CCCCN)C(=O)N[C@@H](CCC(=O)O)C(=O)N[C@@H]([C@@H](C)O)C(=O)NCC(=O)N[C@@H](CSSC[C@@H](C(N)=O)NC(=O)[C@H](CCCNC(=N)N)NC(=O)[C@H](CC(N)=O)NC1=O)C(=O)N1CCC[C@H]1C(=O)N[C@@H](Cc1ccc(O)cc1)C(=O)NCC(=O)N[C@@H](CCCCN)C(=O)N2 | – | DA rat pristane-induced arthritis, serum | subcutaneous, 0.1 mg/kg single dose at onset, 21 days | – | Phosphorus | 5.12 mg/dL
O=P([O-])([O-])Oc1ccc(-c2cc(=S)ss2)cc1.[Na+].[Na+] | HPLC | water | 25 °C | – | solubility | ~2100 µg/mL

Structure (SMILES) | test | system | setting | how to read | endpoint | value
CC[C@H](C)[C@@H]1NC(=O)[C@H](CCCCN)NC(=O)[C@H](CCCCN)NC(=O)[C@H](Cc2ccc(O)cc2)NC(=O)[C@H](CC(C)C)NC(=O)[C@@H]2CCCN2C(=O)[C@H](C)NC(=O)CNC(=O)CNC(=O)[C@H](CO)NC(=O)CNC(=O)CNC(=O)[C@H](CO)NC(=O)[C@H](CCC(=O)O)NC(=O)[C@H](CC(C)C)NC(=O)[C@H](CC(C)C)NC(=O)[C@H](CCCCN)NC(=O)[C@H](CCCCN)NC(=O)[C@H]([C@@H](C)CC)NC(=O)[C@H]([C@@H](C)CC)NC(=O)[C@H](CCCCN)NC(=O)[C@H](CCCCN)NC(=O)[C@H](Cc2ccc(O)cc2)NC(=O)[C@H](CC(C)C)NC(=O)[C@@H]2CCCN2C(=O)[C@H](C)NC(=O)CNC(=O)[C@@H]2CSSC[C@H](NC(=O)[C@H](CC(C)C)NC(=O)[C@H](CCCCN)NC(=O)[C@H](CCCCN)NC(=O)[C@H]([C@@H](C)CC)NC1=O)C(=O)N[C@@H](CCCCN)C(=O)N[C@@H](CC(N)=O)C(=O)NCC(=O)N2 | hemolysis | uninfected human erythrocytes | 1 h | – | HC10 | 22.1 ± 2.4 µM
O=C(O)CC[C@H](NC(=O)O[C@@H](CCCCNC(=O)c1ccc([18F])cc1)C(=O)O)C(=O)O | – | mouse, PC-3 PIP/flu xenografts, large intestine | 30 min | – | tissue uptake | 3.82 ± 5.87 %ID/g
CC[C@H](C)C(=O)N1CCC(NC(=O)Nc2ccc(OC(F)(F)F)c(F)c2)CC1 | – | human, plasma | oral, 2 mg, single dose, healthy volunteers | – | Tmax | 1.25 h
C#Cc1c(F)ccc2cc(O)cc(-c3ncc4c(N5CC6CCC(C5)N6C(=O)OC(C)OC(=O)CCCC)nc(OC[C@@]56CCCN5C[C@H](F)C6)nc4c3F)c12 (stereo partly shown) | chemical stability | simulated intestinal fluid | 1 µM, 30 min | – | compound remaining | 63.9%
CC[C@@H]1C[C@]1(NC(=O)[C@@H]1C[C@@]2(CN1C(=O)[C@@H](NC(=O)[C@@H](NC(=O)[C@@H]1CCCCN1C(C)C)C1CCCCC1)C(C)(C)C)C(C)(C)C21CCC1)C(=O)NS(=O)(=O)N1CCCC1 | – | human | oral, 100 mg, fed | relative to: fasted | decrease in Cmax | ~44%
CC(=O)[O-].CN1CCCN2CCN(CCCN(Cc3ccccc3)CC2)CC1.F[P-](F)(F)(F)(F)F.[Co+2] | cyclic voltammetry, measured: second Co2+/Co3+ couple | acetonitrile | – | relative to: SHE | E1/2 | 0.564 V
[2H]C([2H])([2H])C([2H])([2H])C([2H])([2H])OC(C(=O)OC1CCNCC1)(c1ccccc1)c1ccccc1 | measured: upper respiratory tract infection | healthy Japanese male | oral, 12 mg once daily, 16 days | – | adverse events | 14.3%
CC(C)[C@H](NC(=O)CNC(=O)[C@H](CCC(N)=O)NC(=O)[C@H](C)N)C(=O)O | – | healthy male volunteers | intravenous, 45 mg/kg/h, 2 h, added: LPS 2 ng/kg | – | subjects with severe AE | 0%
C[C@@H]1CC[C@H]2[C@@H](C)CO[C@@H]3O[C@@]4(C)CC[C@@H]1[C@]32OO4 | measured: compound | rat, plasma | 50.0 ng/mL spiked, three freeze/thaw cycles | – | stability accuracy | 112%
CC(C)[C@H](NC(=O)[C@H](Cc1c[nH]c2ccccc12)NC(=O)[C@H](Cc1ccccc1)NC(=O)[C@@H](NC(=O)[C@@H](NC(=O)[C@H](CCCCN)NC(=O)[C@@H](N)CCCCN)C(C)C)C(C)C)C(=O)N[C@@H](CCCCN)C(=O)N[C@@H](Cc1ccccc1)C(=O)N[C@@H](CCCCN)C(N)=O | ELISA, measured: IgG2a | mouse, serum | iv, 500 µg/kg twice, 5 days | – | serum antibody level | 0.235 ± 0.017 OD490
CCCCCCCCCCCCC(=O)O.O=C1CCCC2C3CCCN4CCCC(CN12)C34 (stereo not shown) | electrical conductivity | water | 298.15 K, critical micelle concentration | – | standard enthalpy of micellization | -1.12 kcal/mol
CC[C@H](C)[C@H](NC(=O)[C@H](CO)NC(=O)[C@H](CCC(N)=O)NC(=O)[C@H](CCCNC(=N)N)NC(=O)[C@H](CC(C)C)NC(=O)[C@H](CO)NC(=O)[C@H](CC(C)C)NC(=O)[C@@H](N)CCSC)C(=O)N[C@@H](CCCNC(=N)N)C(=O)N[C@@H](Cc1ccccc1)C(=O)N[C@@H](Cc1ccccc1)C(=O)N[C@@H](CCCCN)C(N)=O | – | water | 0.167 min | – | thermodynamic solubility | 9.07 mM (≈ 13.8 mg/mL)
CCCC[C@H](NC(=O)CCOCCOCCNC(=O)CN1CCN(CC(=O)O)CCN(CC(=O)O)CCN(CC(=O)O)CC1)C(=O)N[C@H]1CC(=O)NCCCC[C@@H](C(N)=O)NC(=O)[C@H](Cc2c[nH]c3ccccc23)NC(=O)[C@H](CCCNC(=N)N)NC(=O)[C@@H](Cc2ccccc2)NC(=O)[C@H](Cc2c[nH]cn2)NC1=O [gallium-68 labelled] | radio-HPLC | mouse, plasma | intravenous, 8 to 12 MBq, 15 min post injection | – | intact compound | > 98%
Cc1cc(-c2ccc3ccccc3c2)nnc1NCCN1CCN(C)CC1 | metabolic stability | human, liver microsomes | – | – | half-life | > 1 h
C/C=C/C=C/C/C=C/CCCCCCCc1cccc(O)c1O | – | female Kunming mice, tumour-bearing, heart | intravenous, 10 mg/kg, 1 h | – | tissue concentration | 12700 ± 1680 ng/g
